Assay results collected from several papers.
Protocols differ between the studies behind these lines. Several values in a cell are separate wells, animals, samples, runs or records.
Cell line: SK-MEL-2

| SMILES | assay | setting | how to read | quantity | result |
| --- | --- | --- | --- | --- | --- |
| Cn1cncc1C1=CN(c2ncnc3[nH]cnc23)CCS1 | – | melanoma cell line | – | TGI | 43.7 µM |
| O=C(Nc1nnc2n3c(=S)[nH][nH]c3nc(-c3ccc(Cl)cc3)c1-2)c1ccccc1 | SRB | 10 µM, NCI60 single-dose screen | baseline: untreated | cell growth | 108% |
| CCCCN1CCN(c2ccc3[nH]c(-c4ccc5[nH]c(-c6ccc(C(F)(F)F)cc6)nc5c4)nc3c2)CC1 | SRB | 10 µM, 48 h | – | growth percent | -47.5% |
| COC(=O)N[C@@H](C)CNc1nccc(-c2cn(C(C)C)nc2-c2cc(Cl)cc(NS(C)(=O)=O)c2F)n1 | ERK phosphorylation, activator, Western blot, item: p-ERK/total ERK | 1 h, concentration for 200% induction | – | EC200 | 11 nM |
| NNc1nc(-c2ccc(Cl)cc2)c2c(NC(=O)c3ccccc3)nnc-2[nH]1 | SRB | 10 µM, NCI60 single-dose screen | baseline: untreated | cell growth | 115% |
| CCCN1CCN(c2ccc3[nH]c(-c4ccc5[nH]c(-c6cc(OC)c(OC)c(OC)c6)nc5c4)nc3c2)CC1 | SRB | 10 µM, 48 h | – | growth percent | 70.9% |
| CC(C)(N)c1cc(C(=O)N[C@@H]2CCc3ccc(Oc4ccnc5c4CCC(=O)N5)cc3C2)cc(C(F)(F)F)c1 | ERK phosphorylation, inhibitor, Western blot, item: p-ERK/total ERK | 1 h | – | IC50 | 3.8 µM |
| O=C(Nc1nnc2[nH]c(=S)[nH]c(-c3ccc(Cl)cc3)c1-2)c1ccccc1 | SRB | 10 µM, NCI60 single-dose screen | baseline: untreated | cell growth | 108% |
| CCCN1CCN(c2ccc3[nH]c(-c4ccc5[nH]c(-c6ccc(OCC)c(OCC)c6)nc5c4)nc3c2)CC1 | SRB | 10 µM, 48 h | – | growth percent | -73.9% |
| S=C([S][Au-][P+](CCCCCC[P+]([Au-][S]C(=S)n1cccn1)(c1ccccc1)c1ccccc1)(c1ccccc1)c1ccccc1)n1cccn1 | cell growth, NCI-60 screen | melanoma | – | log10 TGI | -5.09 |
| CCCS(=O)(=O)Nc1ccc(F)c(C(=O)c2c[nH]c3ncc(-c4ccc(Cl)cc4)cc23)c1F | ERK phosphorylation, activator, Western blot, item: p-ERK/total ERK | 1 h, concentration for 200% induction | – | EC200 | 68 nM |
| CCCN1CCN(c2ccc3[nH]c(-c4ccc5[nH]c(-c6ccc(C(F)(F)F)cc6)nc5c4)nc3c2)CC1 | SRB | 10 µM, 48 h | – | growth percent | 7.45% |
| C#C[C@@]1(O)[C@@H](CO)O[C@@H](n2cc(Br)c3c(N)ncnc32)[C@@H]1O | SRB | NCI-60 screen | – | TGI | 0.43 µM and 0.758 µM |
| Cc1cc(C)n(-c2nc(-c3ccc(Cl)cc3)c3c(NC(=O)c4ccccc4)nnc-3[nH]2)n1 | SRB | 10 µM, NCI60 single-dose screen | baseline: untreated | cell growth | 86.4% |
| C#C[C@@]1(O)[C@@H](CO)O[C@@H](n2cc(F)c3c(N)ncnc32)[C@@H]1O | SRB | NCI-60 screen | – | TGI | 2.87 µM |
| O=C(Nc1nnc2n3c(nc(-c4ccc(Cl)cc4)c1-2)SCC3=O)c1ccccc1 | SRB | 10 µM, NCI60 single-dose screen | baseline: untreated | cell growth | 105% |
| CCOc1ccc(-c2nc3cc(-c4nc5cc(N6CCN(C)CC6)ccc5[nH]4)ccc3[nH]2)cc1OCC | SRB | 10 µM, 48 h | – | growth percent | -17.5% |

Excerpt of the above:
| SMILES | assay | setting | how to read | quantity | result |
| --- | --- | --- | --- | --- | --- |
| COC(=O)N[C@@H](C)CNc1nccc(-c2cn(C(C)C)nc2-c2cc(Cl)cc(NS(C)(=O)=O)c2F)n1 | ERK phosphorylation, activator, Western blot, item: p-ERK/total ERK | 1 h, concentration for 200% induction | – | EC200 | 11 nM |
| CCCN1CCN(c2ccc3[nH]c(-c4ccc5[nH]c(-c6cc(OC)c(OC)c(OC)c6)nc5c4)nc3c2)CC1 | SRB | 10 µM, 48 h | – | growth percent | 70.9% |
